Assay results pooled from the literature.
Lines come from different studies, so protocols differ. In brackets after ≈: the same amount, converted by molar mass.
Organism: Staphylococcus aureus

SMILES | assay | test system | setting | scale | quantity | value
CC(C)C[C@H](NC(=O)[C@H](CC(N)=O)NC(=O)[C@H](CCCNC(=N)N)NC(=O)[C@@H](CC(C)C)NC(=O)[C@H](Cc1ccc(-c2ccccc2)cc1)NC(=O)[C@H](CC(=O)O)NC(=O)[C@H](CCCCN)NC(=O)[C@@H](CC(C)C)NC(=O)[C@H](CCCNC(=N)N)NC(=O)[C@H](CCC(N)=O)NC(=O)[C@@H](NC(=O)[C@@H](CC(C)C)NC(=O)[C@H](CCCNC(=N)N)NC(=O)[C@H](CCCCN)NC(=O)[C@H](Cc1ccc(-c2ccccc2)cc1)NC(=O)CN)C(C)C)C(=O)N[C@H](C(N)=O)C(C)C | XTT | USA300 | 24 h, 37 °C |  | biofilm inhibitory concentration | 6.25 µM
CN1/C(=C/C=C/c2cc(-c3ccccc3)cc(-c3ccccc3)[o+]2)C(C)(C)c2ccccc21 | lipid synthesis | NCTC 8325 | together with: reserpine 20 µg/mL |  | IC50 | 0.62 µg/mL
N=C(N)NCCC[C@@H]1NC(=O)[C@H](CCCNC(=N)N)NC(=O)[C@H](CCCNC(=N)N)NC(=O)[C@H](Cc2ccc3ccccc3c2)NC(=O)[C@H](Cc2c[nH]c3ccccc23)NC(=O)[C@H](Cc2ccc3ccccc3c2)NC(=O)[C@H](CCCNC(=N)N)NC1=O | XTT | MRSA ATCC BAA-1556 | 2 x MIC | baseline: untreated | biofilm reduction | 60 to 65%
COc1ccc2c(oc3c4ccc(O)cc4oc(=O)c23)c1CC=C(C)C |  | ATCC 25923 | concentration not given |  | antibacterial activity | inactive
C[C@H]1COc2c(N3CCN(C)CC3)c(F)cc3c(=O)c(C(=O)N[C@@H](CCCNC(=N)N)C(=O)N[C@@H](Cc4ccc(-c5ccccc5)cc4)C(=O)N[C@@H](CCCNC(=N)N)C(=O)N[C@@H](Cc4ccc(-c5ccccc5)cc4)C(=O)N[C@@H](CCCNC(=N)N)C(N)=O)cn1c23 | broth microdilution | ATCC BAA-44 |  | baseline: MIC of unconjugated components | fold MIC improvement | 2.5 to 3.25 fold
Oc1c(Br)c(Cl)c(Br)c2nc3c(C(F)(F)F)cc(C(F)(F)F)cc3nc12 | microbial killing | MRSA |  |  | MBC | 25 µM (≈ 13.1 µg/mL)
CC(=O)[O-].O.[Cu+2].[O-]c1ccc(Br)cc1C=NCCN1CCOCC1 |  |  | 20 µL of 100 µM per disc |  | inhibition zone diameter | 18 mm
Cc1cc(=O)oc2cc3c(c(C)c12)C(=O)c1c(O)cccc1C3=O |  | MTCC 96 | 100 µg/disc |  | zone of inhibition | < 8 mm
CN(C)c1cc(CN2CCc3ccccc3C2)c(O)c2c1C[C@H]1C[C@H]3[C@H](N(C)C)C(O)=C(C(N)=O)C(=O)[C@@]3(O)C(O)=C1C2=O |  | MRSA 5, Tet M, mouse serum |  | baseline: no serum | MIC shift in serum | > 7 dilutions
CC(C)C[C@H](NC(=O)[C@H](CC(N)=O)NC(=O)[C@H](CCCNC(=N)N)NC(=O)[C@@H](CC(C)C)NC(=O)[C@H](Cc1ccc(-c2ccccc2)cc1)NC(=O)[C@H](CC(=O)O)NC(=O)[C@H](CCCCN)NC(=O)[C@@H](CC(C)C)NC(=O)[C@H](CCCNC(=N)N)NC(=O)[C@H](CCC(N)=O)NC(=O)[C@@H](NC(=O)[C@@H](CC(C)C)NC(=O)[C@H](CCCNC(=N)N)NC(=O)[C@H](CCCCN)NC(=O)[C@H](Cc1ccc(-c2ccccc2)cc1)NC(=O)CN)C(C)C)C(=O)N[C@H](C(N)=O)C(C)C | preformed biofilm disruption, XTT | USA300 LAC | 16 µM, 24 h, 100% MHB |  | remaining viable bacteria | ~30%
FC(F)(F)c1cc(CSc2nnc(C34CC5CC(CC(C5)C3)C4)n2-c2ccccc2)cc(C(F)(F)F)c1 |  | IFO 3060 | 200 µg/disc, 24 h, 37 °C |  | inhibition zone diameter | 29 mm
Cc1cccc([N+](=O)[O-])c1NC(=O)CSc1nc2ccccc2c(=O)n1-c1ccc(S(N)(=O)=O)cc1 | microbial growth, well diffusion | ATCC29213 | 500 µg/mL, 24 h |  | inhibition zone | 28 mm
CC(C)(C)OC(=O)N[C@@H](Cc1cnc(C23CC4CC(CC(C4)C2)C3)[nH]1)C(=O)N[C@@H](Cc1c[nH]c2ccccc12)C(=O)N[C@@H](Cc1cnc(C23CC4CC(CC(C4)C2)C3)[nH]1)C(=O)NCc1ccccc1 |  |  |  |  | IC50 | 3.45 to 4.94 µg/mL
CC(C)C[C@H](NC(=O)[C@H](CCCCN)NC(=O)[C@H](CCCNC(=N)N)NC(=O)[C@@H](CC(C)C)NC(=O)[C@H](Cc1c[nH]c2ccccc12)NC(=O)[C@H](CC(=O)O)NC(=O)[C@H](CCCCN)NC(=O)[C@@H](CC(C)C)NC(=O)[C@H](CCCNC(=N)N)NC(=O)[C@H](CCC(N)=O)NC(=O)[C@@H](NC(=O)[C@@H](CC(C)C)NC(=O)[C@H](CCCNC(=N)N)NC(=O)[C@H](CCCCN)NC(=O)[C@H](Cc1ccc(C(C)(C)C)cc1)NC(=O)CN)C(C)C)C(=O)N[C@H](C(N)=O)C(C)C | biofilm disruption, XTT | USA300 | 24 h, 24 h preformed biofilm, TSB |  | minimum antibiofilm concentration | 3.1 µM
NS(=O)(=O)c1ccc(-n2c(SCC(=O)Nc3ccc([N+](=O)[O-])cc3[N+](=O)[O-])nc3ccccc3c2=O)cc1 | microbial growth, well diffusion | MRSA | 500 µg/mL, 24 h |  | inhibition zone | 23 mm
Oc1ccccc1C1Nc2ccccc2C2=[O+][Cu-2]3([Cl])[O]c4ccccc4C=[N+]3N21 (stereo not drawn) | respiratory activity, inhibitor, MTT | ATCC 29213 | concentration not given | at least 70% inhibition | lowest effective concentration | 0.5 × MIC
CCCCCCCCCCCCCCCCC(=O)N[C@@H](CCCCN)C(=O)N[C@@H](CCCCN)C(=O)N[C@@H](CCCCN)C(=O)N[C@@H](CCCCN)C(=O)N[C@@H](CCCCN)C(N)=O |  | MRSA JE2, Galleria mellonella larvae | 50 mg/kg, 4 d |  | survival | ~80%
CN[C@H](CC(C)C)C(=O)N[C@H]1C(=O)N[C@@H](CC(N)=O)C(=O)N[C@H]2C(=O)N[C@H]3C(=O)N[C@H](C(=O)N[C@H](C(=O)O)c4cc(O)cc(O)c4-c4cc3ccc4O)[C@H](O)c3ccc(c(Cl)c3)Oc3cc2cc(c3O[C@@H]2O[C@H](CO)[C@@H](O)[C@H](O)[C@H]2O[C@H]2C[C@](C)(NCc3ccc(C(=O)OCCCCCCN(Cc4ccccn4)Cc4ccccn4)cc3)[C@H](O)[C@H](C)O2)Oc2ccc(cc2Cl)[C@H]1O |  | ATCC 33591 MRSA, neutropenic mouse thigh infection, thigh tissue | ip, 12 mg/kg twice 12 h apart, 24 h post-infection |  | bacterial load | 4.4 log CFU/g
Cn1c(C23CC4CC(CC(C4)C2)C3)nn(CCN2CCCC2)c1=S |  | IFO 3060 | 200 µg/disc, 24 h, 37 °C |  | inhibition zone diameter | 22 mm
CNC(CC(C)C)C(=O)NC1C(=O)NC(CC(N)=O)C(=O)NC2C(=O)NC3C(=O)NC(C(=O)NC(C(=O)O)c4cc(O)cc(O)c4-c4cc3ccc4O)C(O)c3ccc(c(Cl)c3)Oc3cc2cc(c3OC2OC(CO)C(O)C(O)C2OC2CC(C)(NC(=O)CCCCCCCCC[N+](C)(C)C)C(O)C(C)O2)Oc2ccc(cc2Cl)C1O (stereo not drawn) | agar dilution | MRSA4 |  | baseline: vancomycin, higher = more active | MIC fold improvement | 8 fold
CCCCCCCCCC1CC2CCC3CC(CCCCCCCCC)NC(=N1)N23 (stereo not drawn) | bacterial growth | MRSA ATCC 33591 |  |  | IC50 | 2440 nM
CNC(CC(C)C)C(=O)NC1C(=O)NC(CC(N)=O)C(=O)NC2C(=O)NC3C(=O)NC(C(=O)NC(C(=O)O)c4cc(O)cc(O)c4-c4cc3ccc4O)C(O)c3ccc(c(Cl)c3)Oc3cc2cc(c3OC2OC(CO)C(O)C(O)C2OC2CC(C)(NC(=O)CCCCCC[N+](C)(C)C)C(O)C(C)O2)Oc2ccc(cc2Cl)C1O (stereo not drawn) | agar dilution | MRSA4 |  | baseline: vancomycin, higher = more active | MIC fold improvement | 4 fold
Fc1ccc2nc3c4cccnc4c4ncccc4c3nc2c1.[Cl-].[Cl-].[Ru+2].c1ccncc1.c1ccncc1.c1ccncc1.c1ccncc1 |  |  | LED irradiation 470 nm |  | MIC90 | 4 µM
CC(C)C[C@H](NC(=O)[C@H](CC(N)=O)NC(=O)[C@H](CCCNC(=N)N)NC(=O)[C@@H](CC(C)C)NC(=O)[C@H](Cc1ccc(-c2ccccc2)cc1)NC(=O)[C@H](CC(=O)O)NC(=O)[C@H](CCCCN)NC(=O)[C@@H](CC(C)C)NC(=O)[C@H](CCCNC(=N)N)NC(=O)[C@H](CCC(N)=O)NC(=O)[C@@H](NC(=O)[C@@H](CC(C)C)NC(=O)[C@H](CCCNC(=N)N)NC(=O)[C@H](CCCCN)NC(=O)[C@H](Cc1ccc(-c2ccccc2)cc1)NC(=O)CN)C(C)C)C(=O)N[C@H](C(N)=O)C(C)C | bacterial growth | USA300 | 0.5 × MIC, 24 h |  | lag time before regrowth | ~3 h

For quick reference, copied from above:
SMILES | assay | test system | setting | scale | quantity | value
CN(C)c1cc(CN2CCc3ccccc3C2)c(O)c2c1C[C@H]1C[C@H]3[C@H](N(C)C)C(O)=C(C(N)=O)C(=O)[C@@]3(O)C(O)=C1C2=O |  | MRSA 5, Tet M, mouse serum |  | baseline: no serum | MIC shift in serum | > 7 dilutions
Cn1c(C23CC4CC(CC(C4)C2)C3)nn(CCN2CCCC2)c1=S |  | IFO 3060 | 200 µg/disc, 24 h, 37 °C |  | inhibition zone diameter | 22 mm
CNC(CC(C)C)C(=O)NC1C(=O)NC(CC(N)=O)C(=O)NC2C(=O)NC3C(=O)NC(C(=O)NC(C(=O)O)c4cc(O)cc(O)c4-c4cc3ccc4O)C(O)c3ccc(c(Cl)c3)Oc3cc2cc(c3OC2OC(CO)C(O)C(O)C2OC2CC(C)(NC(=O)CCCCCC[N+](C)(C)C)C(O)C(C)O2)Oc2ccc(cc2Cl)C1O (stereo not drawn) | agar dilution | MRSA4 |  | baseline: vancomycin, higher = more active | MIC fold improvement | 4 fold
